Published values from different studies.
Compare with care: the assays were run in different laboratories. ± gives the spread as reported.
Sequence of UniProt P04062 (whole entry, unmodified, looked up): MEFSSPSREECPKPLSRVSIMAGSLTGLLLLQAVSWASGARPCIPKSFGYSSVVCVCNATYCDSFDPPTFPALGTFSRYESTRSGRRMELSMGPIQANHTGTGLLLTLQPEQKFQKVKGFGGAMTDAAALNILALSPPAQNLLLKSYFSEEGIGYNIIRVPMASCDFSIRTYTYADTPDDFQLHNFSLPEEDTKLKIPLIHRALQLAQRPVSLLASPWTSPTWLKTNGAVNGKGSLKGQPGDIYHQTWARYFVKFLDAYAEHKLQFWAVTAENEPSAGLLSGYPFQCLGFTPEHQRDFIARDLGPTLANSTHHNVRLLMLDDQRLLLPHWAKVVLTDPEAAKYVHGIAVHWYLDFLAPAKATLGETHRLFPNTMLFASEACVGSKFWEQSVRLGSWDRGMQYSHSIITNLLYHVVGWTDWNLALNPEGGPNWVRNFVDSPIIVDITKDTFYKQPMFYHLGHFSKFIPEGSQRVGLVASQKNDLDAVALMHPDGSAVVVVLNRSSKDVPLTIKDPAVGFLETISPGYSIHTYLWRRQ

SMILES = CCN1CCSC1=CC=CC1=[N+](CC)CCS1; tested on = Trypanosoma cruzi; assay = reporter mRNA translation, inhibitor, measured: capped polyadenylated Renilla luciferase mRNA; system = cell-free extract; setting = concentration not given; how to read = baseline: control RNA; measurement = relative translation; result = 90.1%
SMILES = COc1cc(O)ccc1CCC(c1ccc(O)cc1)c1cc2c(c(C)c1O)OC(c1ccc(O)cc1)CC2 (mixture of isomers); assay = measured: 12-HEPE; system = human whole blood; setting = 30 µM, together with: Escherichia coli; measurement = amount; result = 2900 ± 1320 pg/mL blood
SMILES = COCCOCCOCCNC(=O)Cc1cc(CC(=O)N[C@H]2C[C@H]3C(=O)Nc4cc(OCCOCCOCCOC)cc(n4)C(=O)N4CCC[C@H]4C(=O)Nc4cc(OCCOCCOCCOC)cc(n4)C(=O)N4CCC[C@H]4C(=O)Nc4cc(OCCOCCOCCOC)cc(n4)C(=O)N3C2)cc(CC(=O)N[C@H]2C[C@H]3C(=O)Nc4cc(OCCOCCOCCOC)cc(n4)C(=O)N4CCC[C@H]4C(=O)Nc4cc(OCCOCCOCCOC)cc(n4)C(=O)N4CCC[C@H]4C(=O)Nc4cc(OCCOCCOCCOC)cc(n4)C(=O)N3C2)c1; assay = anion binding, ITC; system = water/acetonitrile 70 vol% (87.1 mol%); setting = 298 K, together with: sodium sulfate; measurement = ΔG; result = -6.358 ± 0.0239 kcal/mol
SMILES = COC1OC(C)C(OC2OC(C)C(OS(=O)(=O)O)C(OC3OC(C)C(OC4OC(C)C(OS(=O)(=O)O)C(OC5OC(C)C(OS(=O)(=O)O)C(OS(=O)(=O)O)C5O)C4O)C(OS(=O)(=O)O)C3O)C2O)C(OS(=O)(=O)O)C1O (stereo not drawn); system = human plasma; setting = 128 µg/mL; how to read = baseline: control; measurement = APTT prolongation; result = 1.1 fold
SMILES = CCCC[C@@H](CSS(=O)(=O)O)NCCC; system = Swiss Webster mice, Schistosoma mansoni infected; setting = 100 mg/kg; how to read = baseline: vehicle control; measurement = spleen weight decrease; result = 16%
SMILES = Nc1nc2cnc(C(=O)N3CCOC[C@@H]3c3ccc(C(F)(F)F)cc3)cc2c2c1COC2; assay = ELISA, measured: SDMA; system = mouse, HCT-116 MTAP wild type xenograft, tumour; setting = oral, 100 mg/kg once daily; how to read = baseline: vehicle; measurement = inhibition; result = 76%
SMILES = OC[C@@H]1[C@@H](O)[C@H](O)[C@@H](O)CN1CCCCCOCc1ccc(-c2ccc3c(c2)OCCCO3)cc1; tested on = GBA1 (Homo sapiens, UniProt P04062, R534H); assay = inhibitor, 4MU-β-D-glucopyranoside; setting = together with: 4MU-β-D-glucopyranoside; measurement = IC50; result = 3000 nM
SMILES = CN1CCC[C@]1(C)/C=C/S(=O)(=O)NC(=O)Nc1c2c(cc3c1CCC3)CCC2; system = human, whole blood ex vivo; setting = 400 mg single dose, 3 h, single ascending dose, together with: LPS and ATP; measurement = IL-18 inhibition; result = 84.1%
SMILES = CN1CCC(N[C@@H]2CCc3[nH]c4c(C(N)=O)ccc(-c5ccccc5Cl)c4c3C2)CC1; assay = organoid viability, CellTiter-Glo 3D; system = sample E colorectal cancer organoid, human; setting = 6 days; measurement = IC50; result = 8.34 nM
SMILES = Oc1cc2c(cc1O)C(c1ccccc1)NCC2 (stereo not drawn); assay = ferrozine; system = cell-free; setting = 100 µM, DMSO solvent; measurement = Fe2+ chelation; result = 91.24 ± 0.81%
SMILES = Cc1nn(C(C)C)c(C)c1CN1CCCC(CCC(=O)NCc2ccccc2F)C1 (stereo not drawn); tested on = Trypanosoma cruzi; assay = reporter mRNA translation, inhibitor, measured: capped polyadenylated Renilla luciferase mRNA; system = cell-free extract; setting = concentration not given; how to read = baseline: control RNA; measurement = relative translation; result = 97%
SMILES = COC1CN([C@H]2CC[C@H]([C@@]3(C)Oc4c(Cl)cc(C(=O)NCc5c(SC)cc(C)[nH]c5=O)c(C)c4O3)CC2)C1; assay = RNA-seq, measured: NDNF; system = human, whole blood; setting = dose not given, 24 h; how to read = baseline: pretreatment baseline; measurement = log2 fold change; result = 7.43
SMILES = CC(CCC(=O)NCc1ccc(C(=O)NO)cc1)C1CCC2C3C(O)CC4CC(O)CCC4(C)C3CCC12C (stereo not drawn); assay = measured: TCA; system = PCK rat (Pkhd1 mutant), liver; setting = oral gavage, dose not given, 5 months; how to read = baseline: total bile acids; measurement = relative abundance; result = 49.7%
SMILES = COC1OC(C)C(OC2OC(C)C(O)C(OC3OC(C)C(OC4OC(C)C(O)C(OS(=O)(=O)O)C4OS(=O)(=O)O)C(OS(=O)(=O)O)C3OS(=O)(=O)O)C2OS(=O)(=O)O)C(OS(=O)(=O)O)C1OS(=O)(=O)O (stereo not drawn); system = human plasma; setting = 128 µg/mL; how to read = baseline: control; measurement = APTT prolongation; result = 1.5 fold
SMILES = O=Cc1cc(OCc2ccccc2)ccc1B(O)O; assay = HPLC-MS; setting = pH 10.2, together with: 50 mM N-α-acetyl-lysine; measurement = pseudo-first-order rate constant; result = 0.1 h⁻¹

Repeated from above:
SMILES = Cc1nn(C(C)C)c(C)c1CN1CCCC(CCC(=O)NCc2ccccc2F)C1 (stereo not drawn); tested on = Trypanosoma cruzi; assay = reporter mRNA translation, inhibitor, measured: capped polyadenylated Renilla luciferase mRNA; system = cell-free extract; setting = concentration not given; how to read = baseline: control RNA; measurement = relative translation; result = 97%
